Measured values collected from several papers.
Every numbered part comes from another study and shows a few of its results, in no order. Changes are numbered by the printed parent chain.
UniProt P07333, sequence (whole entry, looked up): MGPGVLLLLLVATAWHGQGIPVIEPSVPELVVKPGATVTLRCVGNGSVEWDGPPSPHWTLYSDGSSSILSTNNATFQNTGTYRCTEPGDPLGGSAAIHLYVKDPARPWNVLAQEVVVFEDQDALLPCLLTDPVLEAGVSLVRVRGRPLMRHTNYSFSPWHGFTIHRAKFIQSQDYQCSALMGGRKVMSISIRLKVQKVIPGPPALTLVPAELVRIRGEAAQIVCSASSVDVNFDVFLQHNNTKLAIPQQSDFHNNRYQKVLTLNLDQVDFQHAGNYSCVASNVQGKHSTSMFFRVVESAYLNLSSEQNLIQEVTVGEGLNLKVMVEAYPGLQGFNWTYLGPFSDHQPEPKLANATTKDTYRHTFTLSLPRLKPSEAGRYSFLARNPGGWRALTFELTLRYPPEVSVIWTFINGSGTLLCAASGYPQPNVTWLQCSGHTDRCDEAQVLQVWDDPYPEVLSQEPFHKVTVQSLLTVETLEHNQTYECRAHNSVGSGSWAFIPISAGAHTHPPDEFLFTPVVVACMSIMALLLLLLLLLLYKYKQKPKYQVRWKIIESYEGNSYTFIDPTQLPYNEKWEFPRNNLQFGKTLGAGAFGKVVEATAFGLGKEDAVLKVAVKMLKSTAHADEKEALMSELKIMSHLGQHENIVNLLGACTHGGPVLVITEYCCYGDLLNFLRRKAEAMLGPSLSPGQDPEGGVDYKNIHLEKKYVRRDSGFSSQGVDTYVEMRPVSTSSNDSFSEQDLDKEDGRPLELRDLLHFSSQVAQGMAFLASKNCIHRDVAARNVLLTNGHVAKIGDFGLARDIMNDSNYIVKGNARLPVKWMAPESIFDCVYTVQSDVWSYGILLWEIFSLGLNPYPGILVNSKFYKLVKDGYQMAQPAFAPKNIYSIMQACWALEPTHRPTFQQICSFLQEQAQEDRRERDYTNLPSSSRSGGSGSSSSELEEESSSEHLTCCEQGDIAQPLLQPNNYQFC

Study 1 — method: protein binding microarray; form: double-stranded DNA, one strand shown; sample: in vitro; concentration: not given; reference: not given; direction: higher = stronger binding
Target: Histone acetyltransferase KAT6A, both winged helices, GST fusion (KAT6A, Homo sapiens, UniProt Q92794, residues 1-181)
Notes: 8-mer, flanks averaged, mean of 2 arrays, mostly near background
Construct (chain): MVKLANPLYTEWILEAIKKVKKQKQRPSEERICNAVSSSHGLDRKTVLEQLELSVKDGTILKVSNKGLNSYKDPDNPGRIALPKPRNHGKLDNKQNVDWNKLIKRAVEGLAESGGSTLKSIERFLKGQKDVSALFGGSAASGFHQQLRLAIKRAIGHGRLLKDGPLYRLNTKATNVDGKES
Sequence | E-score
CCTCTAAA | -0.134
ATGGGTTG | -0.146
GATACTGC | -0.01
CAAATCCC | -0.0426
CAGACCCA | -0.211
AAGCCAGG | -0.199
CGAGCATA | -0.114
ACCGGAGT | 0.186

Study 2 — method: RNA Bind-n-Seq; form: RNA; sample: in vitro; concentration: 365 nM; reference: no-protein control; direction: higher = stronger binding
Target: RNA binding protein fox-1 homolog 2, RRM domain, GST-SBP tag (RBFOX2, Homo sapiens, UniProt O43251-10, residues 100-194)
Notes: natural RNA segment, single round, ends assumed
All sequences stand within: GGGAGUUCUACAGUCCGACGAUC … UGGAAUUCUCGGGUGCCAA
Target sequence (chain): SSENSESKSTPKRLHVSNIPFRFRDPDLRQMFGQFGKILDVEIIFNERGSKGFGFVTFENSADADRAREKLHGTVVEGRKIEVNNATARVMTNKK
Sequence | RBNS enrichment (R)
GCCAAUUUCUAGGUAAUCUUACUGCUUUGUGGGUUUCUUUCCAUGUACAUCUACCUCUUCCAGCUGUUUUAAGUUUUCUCAAGUCUGUGCCUAUGAAAUCUCAUCCAACU | 0.357
AUCUGUUAGCUCUUAAGGCUCUCCUCGAAUAUGGCAGCAUUUGGCCGCCACUCCCUACGCCCACCAUUAGGACCAUCUCUGGGUGGAACAUUUUGUGUGUGCAGACAAGG | 0.276
AUUCUUUCAAUUUGGUUUGUCCUUCAGUUUUCUUUUCUAUAAAUGUGCUUGGUGAAAUCAGCAAGAAACCAACCAUAUAAAACAGUGUGUGCCGGGCUCUGACUGAGAAA | 1.31
CCUACUUCUACCCUCACUGGCCUCCAGUGGGAUUCACUCCUGCCCUGCCCCCACCUUCCCAGUCCCACAGGCCACCCCUGGCUUGGGCUGGGUUCUGUGAAGUUACGUAU | 0.346
UUCCCGUUCUCCUGUGUCUACUAACAAGGACAUGGGGGUGGGCGGUGACCUCCGCAUCCCUCAGAGCUCAGAGGGUCCUCGCUGCCACCGGUCCCCCCCUAGCCCGUCAU | 0.319
UGAGGCAAGGCCUGGCCGACAACACCGUUAUUGCUAAGUAAAUAAUGUUGUGUGGGACCUGGACCGCCCUCUGGAAGAAGAUUGUACCUUGGAGCUUCUCAAGUUUGAGG | 0.338
AAUGAAGGCUGACACAGUCCCCCUGCUGAUCAUUUUGCUUUAUAUAUUAAAAAAUGCUGCAAAAAUCUGUCUUGCCUGGAAGGAGGGUGGGGCCGACUGGACCGUAGUAA | 0.515
AUGUAUCGCUGCUGUCCAGCAUGCUUUUCUUCUUUUUAUCCAAACAUGAGGCCAGGAGGAUAAUUAACUUGAGGAAUAGACAACUUACAUUCACUACAUAUUUAAUCAUG | 8.67

Study 3 — target: JUN, bZIP domain (human); method: DHFR protein complementation; sample: yeast; reference: wild-type JUN-FOS pair; direction: higher = stronger binding
Notes: single substitutions, most at no-binding floor
Parent: JUN, bZIP domain (human); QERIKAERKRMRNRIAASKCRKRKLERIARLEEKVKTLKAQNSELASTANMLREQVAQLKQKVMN; partner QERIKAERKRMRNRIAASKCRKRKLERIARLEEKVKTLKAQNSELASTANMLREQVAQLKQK
Change | binding fitness [natural log]
T37I | -0.164
A49I | 0.071
K36N | -0.36
V56L | -0.166
E54W | -1.02
Q55H | -0.556
A29P | -0.989
A57N | -0.192

Other studies, line by line
SMILES | target | test | conditions | scale | measurement | value
CC(C)N(CCC(=O)c1ccc2ccccc2c1)Cc1ccccc1 | Macrophage colony-stimulating factor 1 receptor (CSF1R, Homo sapiens, UniProt P07333) | enzyme activity, inhibitor | 0.5 µM | reference: control | remaining activity | 98.6%
